Measurements collected from several papers.
U2AF2: U2AF2 148-342 (Homo sapiens, UniProt P26368)
Chain of UniProt P26368 (whole entry, looked up): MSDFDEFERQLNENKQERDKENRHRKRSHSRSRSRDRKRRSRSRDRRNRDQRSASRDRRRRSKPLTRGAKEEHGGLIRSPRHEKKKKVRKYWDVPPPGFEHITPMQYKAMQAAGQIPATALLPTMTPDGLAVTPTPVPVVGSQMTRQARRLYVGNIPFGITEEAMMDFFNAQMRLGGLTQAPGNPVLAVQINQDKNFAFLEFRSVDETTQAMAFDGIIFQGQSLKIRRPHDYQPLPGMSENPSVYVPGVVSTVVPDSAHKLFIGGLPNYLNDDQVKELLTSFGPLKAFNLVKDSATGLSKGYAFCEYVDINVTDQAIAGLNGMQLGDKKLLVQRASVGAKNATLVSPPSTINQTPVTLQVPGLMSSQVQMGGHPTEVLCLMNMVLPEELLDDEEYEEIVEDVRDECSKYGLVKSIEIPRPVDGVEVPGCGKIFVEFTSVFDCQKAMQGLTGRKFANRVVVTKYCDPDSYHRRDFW
protein full length assumed: protein full length assumed (Bacillus pumilus, UniProt A3FMN7)
Chain of UniProt Q10MB4 (whole entry, looked up): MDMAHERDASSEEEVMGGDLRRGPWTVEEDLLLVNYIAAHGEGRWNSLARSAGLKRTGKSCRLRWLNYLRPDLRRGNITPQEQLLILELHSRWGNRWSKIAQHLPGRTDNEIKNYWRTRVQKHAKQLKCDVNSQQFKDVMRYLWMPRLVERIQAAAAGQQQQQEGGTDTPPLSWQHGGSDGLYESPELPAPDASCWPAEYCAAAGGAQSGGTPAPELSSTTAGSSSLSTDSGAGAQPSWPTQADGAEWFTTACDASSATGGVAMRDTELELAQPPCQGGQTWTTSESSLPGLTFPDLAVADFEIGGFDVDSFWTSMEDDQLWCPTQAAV
Chain of UniProt Q10M41 (whole entry, looked up): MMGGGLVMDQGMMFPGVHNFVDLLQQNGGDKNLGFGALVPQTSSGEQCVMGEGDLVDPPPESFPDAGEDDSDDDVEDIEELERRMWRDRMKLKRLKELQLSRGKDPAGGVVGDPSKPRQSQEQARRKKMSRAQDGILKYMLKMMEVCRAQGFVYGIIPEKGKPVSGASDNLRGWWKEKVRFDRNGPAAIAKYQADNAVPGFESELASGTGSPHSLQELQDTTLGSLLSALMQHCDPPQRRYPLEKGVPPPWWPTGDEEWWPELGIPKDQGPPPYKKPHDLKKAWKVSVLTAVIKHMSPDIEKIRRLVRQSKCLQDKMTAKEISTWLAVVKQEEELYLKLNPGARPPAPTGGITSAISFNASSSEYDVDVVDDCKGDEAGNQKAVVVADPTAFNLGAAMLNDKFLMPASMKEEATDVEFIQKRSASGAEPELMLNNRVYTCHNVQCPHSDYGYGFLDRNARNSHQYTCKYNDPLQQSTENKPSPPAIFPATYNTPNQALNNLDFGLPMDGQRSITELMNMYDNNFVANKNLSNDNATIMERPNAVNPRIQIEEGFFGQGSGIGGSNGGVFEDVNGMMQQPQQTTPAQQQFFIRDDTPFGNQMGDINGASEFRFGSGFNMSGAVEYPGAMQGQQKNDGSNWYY
Chain of UniProt O95905 (whole entry, looked up): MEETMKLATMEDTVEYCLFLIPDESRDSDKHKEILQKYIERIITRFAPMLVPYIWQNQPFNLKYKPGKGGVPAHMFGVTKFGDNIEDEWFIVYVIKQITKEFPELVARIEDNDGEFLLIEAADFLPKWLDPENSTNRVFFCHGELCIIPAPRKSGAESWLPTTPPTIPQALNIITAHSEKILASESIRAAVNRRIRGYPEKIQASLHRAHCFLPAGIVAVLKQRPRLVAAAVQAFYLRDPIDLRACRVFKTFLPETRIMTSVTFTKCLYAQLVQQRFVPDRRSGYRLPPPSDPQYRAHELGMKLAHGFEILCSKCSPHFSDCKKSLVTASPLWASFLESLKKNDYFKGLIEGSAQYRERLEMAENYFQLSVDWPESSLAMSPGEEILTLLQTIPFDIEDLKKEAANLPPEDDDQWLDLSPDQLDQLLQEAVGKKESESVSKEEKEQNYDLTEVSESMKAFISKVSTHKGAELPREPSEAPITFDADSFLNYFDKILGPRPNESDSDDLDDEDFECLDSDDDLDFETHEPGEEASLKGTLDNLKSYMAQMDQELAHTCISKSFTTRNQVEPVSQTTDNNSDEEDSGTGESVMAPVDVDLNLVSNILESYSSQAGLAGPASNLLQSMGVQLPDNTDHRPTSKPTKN
Chain of UniProt P32270 (whole entry, looked up): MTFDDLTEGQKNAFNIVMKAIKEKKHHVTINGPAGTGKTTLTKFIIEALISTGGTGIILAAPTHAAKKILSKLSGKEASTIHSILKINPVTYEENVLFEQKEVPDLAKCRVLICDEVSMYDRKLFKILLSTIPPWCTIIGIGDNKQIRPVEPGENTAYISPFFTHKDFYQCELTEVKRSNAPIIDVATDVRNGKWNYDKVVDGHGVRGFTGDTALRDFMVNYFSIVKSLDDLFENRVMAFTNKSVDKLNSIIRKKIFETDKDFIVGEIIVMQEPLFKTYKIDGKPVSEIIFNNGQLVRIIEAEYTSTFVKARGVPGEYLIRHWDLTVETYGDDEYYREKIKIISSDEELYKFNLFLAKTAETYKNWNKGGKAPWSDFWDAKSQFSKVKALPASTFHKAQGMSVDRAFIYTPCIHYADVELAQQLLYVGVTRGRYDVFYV
Chain of UniProt Q43349 (whole entry, looked up): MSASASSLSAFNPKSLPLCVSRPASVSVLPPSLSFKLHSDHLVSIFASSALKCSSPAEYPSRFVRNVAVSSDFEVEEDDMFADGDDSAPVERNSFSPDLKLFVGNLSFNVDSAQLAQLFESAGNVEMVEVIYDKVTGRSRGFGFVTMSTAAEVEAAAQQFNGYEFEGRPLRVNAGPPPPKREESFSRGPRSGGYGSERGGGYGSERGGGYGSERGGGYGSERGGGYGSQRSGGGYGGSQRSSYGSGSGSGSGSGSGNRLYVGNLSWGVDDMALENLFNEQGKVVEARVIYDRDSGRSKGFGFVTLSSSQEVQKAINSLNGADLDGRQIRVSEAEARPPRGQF
Chain of UniProt B7HFR2 (whole entry, looked up): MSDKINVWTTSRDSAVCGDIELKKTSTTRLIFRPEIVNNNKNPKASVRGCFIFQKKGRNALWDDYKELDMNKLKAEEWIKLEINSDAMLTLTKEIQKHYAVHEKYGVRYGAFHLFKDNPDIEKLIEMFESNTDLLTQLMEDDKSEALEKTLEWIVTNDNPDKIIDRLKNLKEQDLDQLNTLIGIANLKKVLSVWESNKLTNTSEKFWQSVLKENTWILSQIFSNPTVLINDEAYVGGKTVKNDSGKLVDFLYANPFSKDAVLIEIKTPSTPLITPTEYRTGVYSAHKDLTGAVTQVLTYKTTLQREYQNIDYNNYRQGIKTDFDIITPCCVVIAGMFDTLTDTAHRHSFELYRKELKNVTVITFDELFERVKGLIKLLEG
Chain of UniProt Q13118 (whole entry, looked up): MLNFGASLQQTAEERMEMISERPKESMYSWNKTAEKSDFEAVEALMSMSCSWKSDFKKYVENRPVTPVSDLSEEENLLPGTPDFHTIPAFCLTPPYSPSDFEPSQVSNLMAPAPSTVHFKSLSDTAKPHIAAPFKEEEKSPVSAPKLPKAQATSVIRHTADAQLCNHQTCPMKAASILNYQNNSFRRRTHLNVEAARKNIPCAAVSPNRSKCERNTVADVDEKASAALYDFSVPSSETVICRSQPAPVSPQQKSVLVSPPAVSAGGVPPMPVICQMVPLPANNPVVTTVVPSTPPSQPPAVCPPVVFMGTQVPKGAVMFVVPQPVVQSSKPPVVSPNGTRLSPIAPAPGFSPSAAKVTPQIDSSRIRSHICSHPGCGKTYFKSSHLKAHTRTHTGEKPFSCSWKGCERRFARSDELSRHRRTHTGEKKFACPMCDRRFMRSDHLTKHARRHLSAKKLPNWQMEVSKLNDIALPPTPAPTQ
Chain of UniProt P12959 (whole entry, looked up): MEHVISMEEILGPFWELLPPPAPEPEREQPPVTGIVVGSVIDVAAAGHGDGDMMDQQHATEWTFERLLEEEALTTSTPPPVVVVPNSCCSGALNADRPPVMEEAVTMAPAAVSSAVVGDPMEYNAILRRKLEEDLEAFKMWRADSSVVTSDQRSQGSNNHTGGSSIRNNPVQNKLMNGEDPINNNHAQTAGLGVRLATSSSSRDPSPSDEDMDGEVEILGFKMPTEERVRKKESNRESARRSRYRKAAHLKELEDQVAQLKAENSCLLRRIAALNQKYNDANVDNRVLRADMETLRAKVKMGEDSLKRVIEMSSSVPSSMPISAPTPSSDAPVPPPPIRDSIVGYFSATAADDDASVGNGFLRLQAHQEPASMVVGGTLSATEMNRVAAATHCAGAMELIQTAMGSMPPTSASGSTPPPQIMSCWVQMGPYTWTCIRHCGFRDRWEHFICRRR

Strand	target	test	test system	setting	endpoint	result
AGCGUGCCGUGCAACAACAUUACAAUUUACAAUCCACCAUGG (ssRNA)	ECD 150-438 (Homo sapiens, UniProt O95905)	EMSA	RNA	–	binding	no binding
CGGAAAGTCCAAGGCAACATGTATCTTAATATCTTGTCTT (dsDNA)	EIL1A 1-350 (Oryza sativa, UniProt Q10M41)	EMSA	double-stranded DNA, one strand shown	–	binding	no binding
GATCATGCAGGACAGTCGGATCGCAACCTGATTTACTGTGTCATATAGTACGTGATTCAG (ssDNA)	Dda helicase 1-439 (bacteriophage T4, UniProt P32270)	EMSA	single-stranded DNA	no ATP, with: Mg2+ 10 mM	binding	binds
GGTTAGGGTTAGGGTTAGGGTTAG (ssDNA; 5'-phosphate)	Pot1b 1-300 (Mus musculus, UniProt H7BX60)	EMSA	single-stranded DNA	–	binding	binds
AGCAGCACAGAGGTCAGATGCAAACCACAGCCTGAGTGGTTAGCGTATGTCATTTACGGACCTATGCGTGCTACCGTGAA (ssDNA; 5' amino C6)	NPY fragment (Homo sapiens)	electrochemical impedance spectroscopy	single-stranded DNA	10-1000 ng/mL, aptamer electrode	binding	binds
CTCGTCGTGCGCCAACTGCGAGCGAGGGAG (dsDNA)	MYB2 full length assumed (Oryza sativa, UniProt Q10MB4)	EMSA	double-stranded DNA, one strand shown	–	binding	binds
UUUGUCUUU (ssRNA)	U2AF2	sequencing of bound RNA	RNA	motif only	Kd	8.12 µM
GATTTGCTAAAGATACTTGTCCTGTGGAA (dsDNA)	Uncharacterized protein 1-360 (Prunus persica, UniProt M5W9R3)	competition	double-stranded DNA, one strand shown	with: cold mutant probe	binding	no binding
DNA 1 ACGCTCCGTCGAGGAATTCGGATCCGAATTCCTCGAC / DNA 2 ACGCTCCGTCGAGGAATTCGGATCCGAATTCCTCGAC (dsDNA; 5' 7-nt overhangs, palindromic)	sduA 1-380 (Bacillus cereus, UniProt B7HFR2)	fluorescence polarization	double-stranded DNA	with: Mg2+ 5 mM	binding	no binding
GUAUUGUAG (ssRNA)	U2AF2	sequencing of bound RNA	RNA	motif only	Kd	3.98 µM
DNA 1 GAGCTCGGTACCCGTGGATCCTCTAG / DNA 2 TCTAGAGGATCCACGGGTACCGAGCT (dsDNA; 5' 1 nt overhangs)	protein full length assumed	EMSA	double-stranded DNA	–	binding	binds
GTTACT (ssDNA)	CP29A 97-176 (Arabidopsis thaliana, UniProt Q43349)	NMR titration	single-stranded DNA	–	binding	binds
TCTTGTATTTTAGTCATGCATGACAATTTTTTC (dsDNA (Drosophila melanogaster); blunt)	sv (Drosophila melanogaster, UniProt Q59DN9)	EMSA	double-stranded DNA, one strand shown	–	binding	binds
GCAGTGAAAAGGGGGTGTGTCAGGATGC (dsDNA)	KLF10 full length assumed (Homo sapiens, UniProt Q13118)	EMSA	double-stranded DNA, one strand shown	–	binding	binds
TTTTTTTTTTTTTTTTTTTTTTTTTTTTTTTTTTTTTTTTTTTTTTTTTTTTTTTTTTTTTTTTT (ssDNA)	yoaA/holC 1-636; 1-147 R128A (Escherichia coli)	EMSA	single-stranded DNA	with: ATPγS	binding	binds
AGACTTTCTGTCATTGGA (dsDNA)	Auxin response factor 1-610 (Capsicum annuum, UniProt A0A1U8F1G4)	MST	double-stranded DNA, one strand shown	–	binding	binds
TCGGTACCCGTGGATC (dsDNA)	protein full length assumed	EMSA	double-stranded DNA, one strand shown	–	binding	binds
GATTTTATTTCTTTTATGTTTATGTGTCATCTTGAAACTACCACCGAATGGC (dsDNA)	O2 full length assumed (Zea mays, UniProt P12959)	competition	double-stranded DNA, one strand shown	unlabeled DNA competitor	binding	binds
CAGCGTCACATGACGGGAATTTTCACGTCTTTTCAGCCCT (dsDNA)	Hsf17 full length assumed (Zea mays, UniProt A0A5J6CYG6)	competition	double-stranded DNA, one strand shown	–	binding	binds

Some of these lines once more:
Strand	target	test	test system	setting	endpoint	result
DNA 1 GAGCTCGGTACCCGTGGATCCTCTAG / DNA 2 TCTAGAGGATCCACGGGTACCGAGCT (dsDNA; 5' 1 nt overhangs)	protein full length assumed	EMSA	double-stranded DNA	–	binding	binds
